Measurements gathered from unrelated publications.
Values joined by “and” are separate records of one study, mostly repeats; a detail may differ. ± gives the spread as reported.

COc1cc(NC(C)=O)c2c(c1O)-c1c(OC)c(OC)cc3c1C(C2)N(C)CC3 (centres unmarked) — remaining compound (rat kidney homogenate; 50 µg/mL, 40 d, -20 °C, long-term storage): 88.4 ± 1.9%
Cc1noc(C)c1Cn1cc(N2C(=O)CN(Cc3cccc(O[C@@H]4O[C@H](C(=O)O)[C@@H](O)[C@H](O)[C@H]4O)c3)C2=O)cn1 — AUC(0-last) (rat Sprague-Dawley male, plasma; oral, 10 mg/kg of parent drug): 6050 ng·h/mL
Cc1ccc(OCC(=O)O)cc1 — t1/2 (Sprague-Dawley rat, female, plasma; oral, 30 mg/kg/day of parent drug, day 1, 90-day repeated dosing): 2.47 h
CC(C)[C@H](NC(=O)CNC(=O)[C@H](CCC(N)=O)NC(=O)[C@H](C)N)C(=O)O — clearance (healthy volunteers, LPS endotoxaemia, plasma; intravenous, 15 mg/kg/h, 2 h infusion, geometric mean, with: LPS 2 ng/kg): 150 mL/min/kg
CCCC(CCC)NC(=O)c1ccc(OS(=O)(=O)O)c(OC)c1 — AUC(0-last) ratio (male Sprague-Dawley rats, plasma; oral, 50 mg/kg of parent drug; relative to: 50 over 20 mg/kg dose): 4.37
O=C(NC1CCCC1)N1CCC=C(c2cc3c(Nc4cc5ncsc5cc4F)ncnc3s2)C1 — intrinsic clearance (human liver microsomes; 1 µM): < 12 mL/min/g protein
Cc1ccc(/N=N/c2c(O)ccc3ccccc23)c(C)c1 — measured concentration (extracted rat blood QC samples; 0.2 µg/L, 4 h, room temperature, short-term stability): 0.208 µg/L
C[Si]1(C[C@H](CN)CC(=O)O)CCCC1 — performance time (neuromuscular coordination; Wistar rat male; oral, 300 mg/kg, 1 h): 180 s
Cn1c(=O)oc2ccc(-c3ccc(CC(C#N)NC(=O)C4CNCCCO4)c(F)c3)cc21 (centres unmarked) — subjects with TEAE (refers to: blood bilirubin increased; human; 15 mg single dose, fasted): 0%
NC(=O)CN(Cc1ccccc1)C(=O)CN(CCOc1cc(-c2ccccn2)nc(-c2ccccn2)c1)C(=O)CNCc1ccccn1 — chemical stability (UV-Vis; acetate buffer; 100 µM, up to 72 h, pH 4.0, 37 °C): stable
C=C(c1cc(F)c(C(=O)O)c(F)c1)c1cc2c(cc1C)C(C)(C)CCC2(C)C — LDL level (Sprague-Dawley rat, male, plasma; oral, 100 mg/kg, 9 h, sesame oil vehicle): 6 ± 1.2 mg/dL
NCC(=O)N1CCC[C@H]1C(=O)N1C[C@H](O)C[C@H]1C(=O)O — pKa1 (potentiometric titration; water; 40 °C, 0.15 mol/dm3 NaCl): < 2
C=CCc1ccc(O)c(-c2cc(CC=C)ccc2OCCCCCCCCCC[P+](c2ccccc2)(c2ccccc2)c2ccccc2)c1 — serum ALT (C57BL/6 mouse, non-tumour-bearing; dose not given, day 31): 58.7 ± 25.4 IU/L
CCCC[C@H](NC(=O)CNC(=O)CNC(=O)CN1CCN(CC(=O)O)CCN(CC(=O)O)CCN(CC(=O)O)CC1)C(=O)N[C@H]1CC(=O)NCCCC[C@@H](C(N)=O)NC(=O)[C@H](Cc2c[nH]c3ccccc23)NC(=O)[C@H](CCCNC(=N)N)NC(=O)[C@@H](Cc2ccccc2)NC(=O)[C@H](Cc2c[nH]cn2)NC1=O [copper-64 labelled] — uptake ratio (female C57 mouse, B16/F1 melanoma; intravenous, 0.037 MBq, 0.5 h; relative to: tumour over liver): 0.48
COc1ccc2cc(-c3ccc(-c4ccc(C)cn4)nc3)oc2c1 — radiative decay rate constant (TCSPC; water, HEPES 100 mM; pH 7.4): 0.1 ns⁻¹
Cc1cc2c(cc1C1(c3ncc(C(=O)O)cn3)CC1)C(C)(C)CCC2(C)C — LDL level (Sprague-Dawley rat, male, plasma; oral, 100 mg/kg, 3 h, sesame oil vehicle): 15 ± 4.5 mg/dL
CCOC(=O)c1[nH]c(C)c(/C=C/c2c(I)c(C)c3n2[B-](F)(F)[N+]2=C(C)C(I)=C(C)C2=C3c2cc(OC)cc(OC)c2)c1C — absorption maximum (dichloromethane): 606 nm
CCn1c(=O)n(CCO)c(=O)c2c1nc(/C=C/c1ccc(OC)c(OC)c1)n2C — geometric mean ratio AUCinf (healthy humans, plasma; oral, 40 mg, with: rifampin 600 mg/day; relative to: with over without rifampin): 0.3
COC(=O)c1ccc2c(c1)NC(=O)/C2=C(\Nc1ccc2c(c1)CCN2C(=O)CN1CCOCC1)c1ccccc1 — microsomal CLint (metabolic stability; beagle dog, liver microsomes; 10 µM, pH 7.4): 120 µL/min/mg
CC(C)C[C@H](NC(=O)C[C@H](O)[C@H](CC(C)C)NC(=O)[C@H](Cc1c[nH]cn1)NC(=O)CNC(=O)[C@@H](NC(=O)[C@H](C)NC(=O)[C@H](Cc1c[nH]c2ccccc12)NC(=O)[C@H](CCC(N)=O)NC(=O)[C@@H](Cc1ccccc1)NC(=O)CCNC(=O)CCNC(=O)CN1CCN(CC(=O)O)CCN(CC(=O)O)CCN(CC(=O)O)CC1)C(C)C)C(N)=O [lutetium-177 labelled] — absorbed dose (MIRD; mouse PC-3 xenograft, pancreas; intravenous, 50 MBq, without PA): 2.5 Gy
O=C([O-])CN1CCN(CC(=O)[O-])CCN(CC(=O)NCC2CCC(C(=O)NC(Cc3ccc4ccccc4c3)C(=O)NCCCCC(NC(=O)NC(CCC(=O)O)C(=O)O)C(=O)O)CC2)CCN(CC(=O)[O-])CC1.[44Sc+3] (centres unmarked) — intact complex (transmetallation stability; 1 h, 37 °C, with: Fe3+ 10 mM): 98 ± 0.8%
COC(=O)/C=C/C(=O)c1ccc(OC)cc1 — half-life (Sprague-Dawley rat, plasma; oral, 200 mg/kg): ~7.2 h
CC(=O)OC[C@H]1O[C@@H](Sc2sc(C(=O)c3ccc(C)cc3)c(N)c2-c2nc3ccccc3s2)[C@H](OC(C)=O)[C@@H](OC(C)=O)[C@H]1OC(C)=O — maximum nontoxic concentration (DMEM; 72 h): 100 µg/mL
CC(C)c1cnc(-c2cc(Cl)ccc2F)cc1Nc1ccncc1C(=O)NC(CO)CO — patients with treatment-related adverse event (monotherapy, refers to: vomiting; human patients; oral, dose not given, grade 1, phase I A): 9.5%
C[Si](C)(C)C[C@@H](CN)CC(=O)O — performance time (neuromuscular coordination; Wistar rat male; oral, 300 mg/kg, 2 h): 180 s
CC[C@H](C)[C@@H]1NC(=O)[C@H](C)NC(=O)[C@H](CCCNC(=N)N)NC(=O)[C@H](CCCNC(=N)N)NC(=O)[C@H](CC(N)=O)NC(=O)[C@H](CCCNC(=N)N)NC(=O)[C@H](C)NC(=O)[C@H](C(C)C)NC(=O)[C@H]([C@@H](C)CC)NC(=O)[C@H](C(C)C)NC(=O)[C@@H](NC(=O)[C@H](CCCCN)NC(=O)[C@@H](N)CCCNC(=N)N)CSSC[C@@H](C(=O)N[C@@H](CCCNC(=N)N)C(=O)O)NC(=O)[C@H](CC(C)C)NC(=O)[C@H]([C@@H](C)CC)NC1=O — single disulfide form (LC-MS; PBS; 0.1 mg/mL): 100%
O=C(O)C1OC(OC2C(COS(=O)(=O)O)OC(OC3C(C(=O)O)OC(OC4C(COS(=O)(=O)O)OC(OC5C(C(=O)O)OC(OC6C(COS(=O)(=O)O)OC(OC7C(C(=O)O)OC(OC8C(COS(=O)(=O)O)OC(OC9C(C(=O)O)OC(OC%10C(COS(=O)(=O)O)OC(OC%11C(C(=O)O)OC(Oc%12ccc([N+](=O)[O-])cc%12)C(O)C%11O)C(NS(=O)(=O)O)C%10O)C(OS(=O)(=O)O)C9O)C(NS(=O)(=O)O)C8O)C(OS(=O)(=O)O)C7O)C(NS(=O)(=O)O)C6O)C(OS(=O)(=O)O)C5O)C(NS(=O)(=O)O)C4O)C(OS(=O)(=O)O)C3O)C(NS(=O)(=O)O)C2OS(=O)(=O)O)C(O)C(O)C1OC1OC(COS(=O)(=O)O)C(O)C(O)C1NS(=O)(=O)O (centres unmarked) — adrenal to body weight ratio (rats; intravenous, 3600 µg/kg/day for 7 days, day 8): 0.02 ± 0.004
COc1cc2c(cc1OC)CN(CCCCn1ccc3cc(OCC[18F])ccc31)C2 — heart uptake (male ICR mice; intravenous, 120 min post-injection): 2.31 ± 0.16 %ID/g
O=C(O)C1CN(Cc2ccc(-c3noc(-c4ccc(OCC[18F])c(C(F)(F)F)c4)n3)cc2)C1 — tracer uptake (rat, kidney; intravenous, 2 h): 0.845 %ID/g
CCC(=O)NC1CC=C(c2cc3c(Nc4cc5ncsc5cc4F)ncnc3s2)CC1 (racemic) — intrinsic clearance (human liver microsomes; 1 µM): < 12 mL/min/g protein
CC(C)CCCC(C)CCCC(C)CCO[C@@H]1O[C@H](CO)[C@@H](O[C@H]2O[C@H](CO)[C@@H](O)[C@H](O)[C@H]2O)[C@H](O)[C@H]1O (some centres unmarked) — surface tension at induction time (dynamic surface tension; 0.0018 mmol/L): 66.4 mN/m
N=C(N)NCCC[C@@H]1NC(=O)[C@H](Cc2c[nH]c3ccccc23)NC(=O)[C@@H](CC2CCCCC2)NC(=O)[C@@H]2CCCN2C(=O)[C@@H](NC(=O)CCc2ccccc2)CCCNC1=O — apparent total clearance (CL/F) (C57BL/6J mice, brain; subcutaneous, 1 mg/kg, two-compartment model): 1.66 ng/(min·ng/g)
O=c1nc(NO)ccn1[C@@H]1O[C@H](CO)[C@@H](O)[C@H]1O — mRNA level (RT-PCR, refers to: CYP2C13; normal rat, liver; oral, 80 mg/kg twice daily, 5 days; relative to: untreated rats): < 0.1 fold
Cn1cc2cc1C(=O)NC[C@H](N)CC(=O)Nc1cc(n(C)c1)C(=O)Nc1cc(n(C)c1)C(=O)Nc1cc(n(C)c1)C(=O)Nc1cc(n(C)c1)C(=O)NC[C@H](N)CC(=O)Nc1cn(C)c(n1)C(=O)Nc1cn(C)c(n1)C(=O)Nc1cc(n(C)c1)C(=O)N2 — injected dose in plasma (C57BL/6 mice, plasma; intraperitoneal, 120 nmol/animal, 1.5 h): ~1.2%
COc1ccc(/C=C/c2ccc(-c3ccc(C)cn3)nc2)cc1 — fluorescence quantum yield (CHCl3; with: quinine bisulfate reference): 0.36
C#CCOc1ccc(/C=C2\SC(=O)N(CC(=O)NCc3ccccc3)C2=O)cc1 — Kirkwood-Buff integral G1,3 (inverse Kirkwood-Buff integrals; binary solvent mixture; 298.15 K, mole fraction x1 0.75): -259 cm³/mol
CC(C)C[C@@H](NC(=O)[C@H](NC(=O)[C@H]1CCCN1)[C@H](C)O)C(=O)N[C@H](Cc1c[nH]cn1)C(=O)N[C@@H](C(=O)N[C@H](Cc1c[nH]cn1)C(=O)N[C@H](CC(N)=O)C(=O)N[C@H](CCCNC(=N)N)C(=O)N[C@H](CCCNC(=N)N)C(=O)N[C@H](CCCNC(=N)N)C(=O)N[C@H](CCCNC(=N)N)C(=O)N[C@H](CCCNC(=N)N)C(N)=O)[C@H](C)O — Cmax (beagle dog, plasma; oral, 20 mg/kg, single dose): 567 ng/mL
CSCOC1C(=O)C2(C)C(OCSC)CC3OCC3(OC(C)=O)C2C(OC(=O)c2ccccc2)C2(O)CC(OC(=O)C(O)C(C=C(C)C)NC(=O)OC(C)(C)C)C(C)=C1C2(C)C (centres unmarked) — clearance (female Sprague-Dawley rat, plasma; intravenous, 4 mg/kg): 66.7 mL/min/kg
CC(=O)N[C@H](CC(=O)O)C(=O)N[C@H](Cc1c[nH]c2ccccc12)C(=O)N[C@H](Cc1ccccc1)C(=O)N[C@H](CCCCN)C(=O)N[C@H](C)C(=O)N[C@H](Cc1ccccc1)C(=O)N[C@H](Cc1ccc(O)cc1)C(=O)N[C@H](CC(=O)O)C(=O)N[C@H](CCCCN)C(=O)N[C@@H](C(=O)N[C@H](C)C(=O)N[C@H](CCC(=O)O)C(=O)N[C@H](CCCCN)C(=O)N[C@H](Cc1ccccc1)C(=O)N[C@H](CCCCN)C(=O)N[C@H](CCC(=O)O)C(=O)N[C@H](C)C(=O)N[C@H](Cc1ccccc1)C(N)=O)C(C)C — AUC(0-t) (statin-treated high-risk CHD men, plasma; oral, 300 mg daily, day 1, 0 to 2 h, mean, detected subjects only): 5.86 ng·h/mL
CCC(C)N(C)C(=O)c1nc(-c2cccc(C(F)(F)[18F])c2)c2ccccc2n1 (centres unmarked) — parent compound remaining (Sprague-Dawley rat, brain; intravenous, 60 min): 98% and > 98%
COc1cc(/C=C/C(=O)O)ccc1O — freeze-thaw stability (human plasma; 2 ng/mL, 3 cycles): 97.8 ± 4.05%
[Ru+2].c1ccc(-c2cccc(-c3ccccn3)n2)nc1.c1ccc2nc(-c3ccc4ccccc4n3)ccc2c1.c1ccncc1 — photosubstitution quantum yield (water; 470 nm light): 0.014
COc1cc(/C=C/C(O)=C/C(=O)/C=C/c2ccc(O[C@@H]3O[C@H](C(=O)O)[C@@H](O)[C@H](O)[C@H]3O)c(OC)c2)ccc1O — free curcumin level (mouse, tumour; 90 mg/kg, iv versus ip): no effect
CC(NCCc1nsc2ccccc12)c1cccc2c1OCO2 (centres unmarked) — serum calcium (mouse; subcutaneous, 3 mg/kg, 6 h): 2.4 mM
O=c1[nH]c(=O)n(C2OC(CO)C(O)C2O)cc1-n1nnc2c1CCC1C(CO)C1CC2 (mixture of isomers) — second excitation maximum (methanol; red edge of spectrum): 388 nm
Oc1ccc2ccccc2c1/N=N/c1ccc(/N=N/c2ccccc2)cc1 — freeze-thaw stability deviation (rat whole blood; 16.0 µg/L, freeze-thaw cycle 3): -0.9%
COC(=O)C1OC(Oc2c(-c3ccccc3)oc3cc(O)c(O)c(O)c3c2=O)C(O)C(O)C1O (centres unmarked) — organ weight (BALB/c mouse, thymus; 5 mg/kg): 0.19 ± 0.02 g

A few entries again:
C[Si](C)(C)C[C@@H](CN)CC(=O)O — performance time (neuromuscular coordination; Wistar rat male; oral, 300 mg/kg, 2 h): 180 s
CC[C@H](C)[C@@H]1NC(=O)[C@H](C)NC(=O)[C@H](CCCNC(=N)N)NC(=O)[C@H](CCCNC(=N)N)NC(=O)[C@H](CC(N)=O)NC(=O)[C@H](CCCNC(=N)N)NC(=O)[C@H](C)NC(=O)[C@H](C(C)C)NC(=O)[C@H]([C@@H](C)CC)NC(=O)[C@H](C(C)C)NC(=O)[C@@H](NC(=O)[C@H](CCCCN)NC(=O)[C@@H](N)CCCNC(=N)N)CSSC[C@@H](C(=O)N[C@@H](CCCNC(=N)N)C(=O)O)NC(=O)[C@H](CC(C)C)NC(=O)[C@H]([C@@H](C)CC)NC1=O — single disulfide form (LC-MS; PBS; 0.1 mg/mL): 100%
